Published values from different studies.
Each numbered part is a random draw from the data of one study; scales do not carry over between parts. Positions count from the first letter of the parent shown.

Study 1 — technique: protein binding microarray; molecule type: double-stranded DNA, one strand shown; medium: in vitro; concentration: not given; relative to: not given; reading: higher = stronger binding; measurement: E-score
Target: Histone acetyltransferase KAT6A, winged helix 1, GST fusion (KAT6A, Homo sapiens, UniProt Q92794, residues 1-85)
Notes: 8-mer, flanks averaged, mean of 2 arrays, mostly near background
Construct (chain): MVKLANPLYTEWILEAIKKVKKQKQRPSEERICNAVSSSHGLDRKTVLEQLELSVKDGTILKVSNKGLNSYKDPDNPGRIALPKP
Oligonucleotide = GCGAGAAA; result = -0.0636
Oligonucleotide = GCGTGTGA; result = 0.148
Oligonucleotide = ATTCCGTG; result = 0.155
Oligonucleotide = TACATGAA; result = -0.0926
Oligonucleotide = AAGGAAAA; result = -0.109
Oligonucleotide = CTACATGC; result = -0.0289
Oligonucleotide = CTGTAACC; result = 0.0564
Oligonucleotide = CGTCGTAA; result = 0.158
Oligonucleotide = ACGCGGAA; result = 0.262
Oligonucleotide = GATATAAA; result = -0.291

Study 2 — target: CCND2, cyclin fold, Cln2 fusion (human); technique: yeast growth competition, sequencing; medium: yeast; notes: weak parent motif; relative to: not given; reading: higher = stronger binding; measurement: normalised enrichment score
Parent: SAMHD1 docking peptide (human); ASKSRVQLFKDDP; partner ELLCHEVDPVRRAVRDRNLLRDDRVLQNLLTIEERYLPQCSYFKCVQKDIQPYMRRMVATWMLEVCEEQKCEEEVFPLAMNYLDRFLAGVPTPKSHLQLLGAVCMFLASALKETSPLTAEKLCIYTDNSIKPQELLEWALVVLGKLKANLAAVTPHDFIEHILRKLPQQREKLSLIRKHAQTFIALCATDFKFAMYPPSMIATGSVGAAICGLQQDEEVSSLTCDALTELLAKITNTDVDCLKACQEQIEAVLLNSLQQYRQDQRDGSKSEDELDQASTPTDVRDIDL
Variant = ASKSCVQLFKDDP [R5C]; result = 0.279
Variant = ASKSVVQLFKDDP [R5V]; result = 0.0185
Variant = ASKSRVTLFKDDP [Q7T]; result = 0.0497
Variant = ARKSRVQLFKDDP [S2R]; result = -0.113

Study 3 — technique: RNA Bind-n-Seq; molecule type: RNA; medium: in vitro; concentration: 365 nM; relative to: no-protein control; reading: higher = stronger binding; measurement: RBNS enrichment (R)
Target: RNA binding protein fox-1 homolog 2, RRM domain, GST-SBP tag (RBFOX2, Homo sapiens, UniProt O43251-10, residues 100-194)
Notes: natural RNA segment, single round, ends assumed
Residues (chain): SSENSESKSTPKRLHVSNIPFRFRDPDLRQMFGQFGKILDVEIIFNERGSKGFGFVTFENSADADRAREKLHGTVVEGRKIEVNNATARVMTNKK
Oligonucleotide = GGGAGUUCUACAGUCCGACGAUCAAGUGCAAUUCCUGAAGGCAUCAGGCUCUUCUCUCCCAGGCUCUCCUGCCCACUGUGUUGUUUGUAGGACACCCCCACACCCACUCAUACACAGCCUGCAUCUCCACAGGUGGAAUUCUCGGGUGCCAA; result = 0.638
Oligonucleotide = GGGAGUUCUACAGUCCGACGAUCUGCCUCCUGGGAUCCUCAUCCCCAAUCCUGCUCUUACAUAAACCUUUUUCUUGUUUUAGUAAUUUGUAGUGAUCACCCCCUUCCCUCUGUUGCUGGGACCCAGGAGGAAAUGGAAUUCUCGGGUGCCAA; result = 0.565
Oligonucleotide = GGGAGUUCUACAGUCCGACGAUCCUUCUGGGGUGGGGACAGGCCCUCAUGGCAGGCUUGUUCCCGUGGCUCUGAGCGAGGCCUCUUCCUGCUGGGCUCCCAGACUCCUGCAUCCAGGCCCCCACCUUCUCGGCUGGAAUUCUCGGGUGCCAA; result = 0.506
Oligonucleotide = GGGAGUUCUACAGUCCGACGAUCUAGCAGGAGGUCCUCUACUGGUGAUACCCUCACCUUGGGGUAAUGGUCCUAACCCAGACCCAGGGUCUGGAAGCUUAAUGUUGAGUUGGUGACUCCAGCCUCUUUCUCCUUGGAAUUCUCGGGUGCCAA; result = 0.357
Oligonucleotide = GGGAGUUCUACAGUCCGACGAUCGAGAACUUUCCCCAGUCACCAUAGACCAUUCUCCUUCCUGAAGGCUUGGGGCAGACCAUUCGUUUAUUUAGAGAAGAGCUAUACAUUCUUCUUUCUGGUCCCAUCUUAAAUGGAAUUCUCGGGUGCCAA; result = 0.324

Other studies, line by line
Molecule = PhoQ, residues 284 288 289 292 302 303 SVHLDV; target = PhoP, residues 12 14 15 18 19 SMASL (Escherichia coli, UniProt P23836); test = Sort-seq, item: YFP reporter; system = E. coli; conditions = PhoQ-PhoP variant library, added: 10 µM Mg2+; how to read = relative to: high Mg2+ state, higher = stronger signaling; measurement = fold induction; result = 8.29

A few entries again (study 1):
Oligonucleotide = CGTCGTAA; result = 0.158
